Published values collected from several papers.
Each line is one published result; not all experiments were run side by side. Several values in a cell are separate wells, animals, samples, runs or records.

CC(C)(C)NC(=O)C1CCN(Cc2cccc(/N=N/c3ccc(F)c(F)c3F)c2)CC1 — absorption maximum, trans isomer (DMSO; 25 µM, 25 °C): 332 nm
CC1(C)C(=CC=C2CCCC(C=CC3=[N+](CCC[N+](C)(C)C)c4ccc(S(=O)(=O)O)cc4C3(C)C)=C2SCCOCCOCCC(=O)O)N(CCC[N+](C)(C)C)c2ccc(S(=O)(=O)O)cc21 — absorption maximum wavelength (DMSO): 806 nm
C=Cc1ccc([B-]23OC(=O)C(c4ccccc4)=N[N+]2=Cc2ccc(N(CC)CC)cc2O3)cc1 (stereo not shown) — absorption maximum (toluene): 473 nm
CCCCN1C(=O)c2cccc3c(NCCCCCCN4CCOCC4)ccc(c23)C1=O — absorption maximum (DMSO): 446 nm
CCN(CC)c1ccc2c(c1)O[B-]1(c3ccccc3)OC(=O)C(c3ccccc3)=N[N+]1=C2C(C)C (stereo not shown) — absorption maximum (toluene): 474 nm
O=c1cc(/C=C/c2ccc(N3CCCC3)cc2)oc(/C=C/c2ccc(N3CCCC3)cc2)c1 — absorption bathochromic shift (UV-vis; nanoparticles in aqueous acetonitrile; baseline: acetonitrile solution): 2560 cm⁻¹
C=Cc1cccc([B-]23OC(=O)C(c4ccccc4)=N[N+]2=Cc2ccc(N(CC)CC)cc2O3)c1 (stereo not shown) — absorption maximum (toluene): 472 nm
CCCCN1C(=O)c2cccc3c(NCCCCCN4CCOCC4)ccc(c23)C1=O — absorption maximum (ethyl acetate): 428 nm
CC(C)(C)NC(=O)C1CCN(Cc2cccc(N=Nc3ccc(F)cc3)c2)CC1 — absorption maximum, cis isomer (DMSO; 25 µM, 25 °C): 437 nm
CCCCN1C(=O)c2cccc3c(NCCCN4CCOCC4)ccc(c23)C1=O — absorption maximum (acetonitrile): 434 nm
C=C[C@]1(C)C[C@@H](OC(=O)CSc2ccc(NC(=O)c3ccco3)cc2)[C@]2(C)[C@H](C)CC[C@]3(CCC(=O)[C@H]32)[C@@H](C)[C@@H]1O — absorption half-life (chicken, Mycoplasmoides gallisepticum infected, plasma; intramuscular, 80 mg/kg): 5.77 min and 6 min
CC(C)(C)NC(=O)C1CCN(Cc2cccc(/N=N/c3ccc(F)cc3F)c2)CC1 — absorption maximum, trans isomer (DMSO; 25 µM, 25 °C): 334 nm
CCCCN1C(=O)c2cccc3c(NCCCCCCCCN4CCOCC4)ccc(c23)C1=O — absorption maximum (dichloromethane): 428 nm
C=Cc1ccccc1[B-]12OC(=O)C(c3ccccc3)=N[N+]1=C(CC)c1ccc(N(CC)CC)cc1O2 (stereo not shown) — absorption maximum (toluene): 470 nm
CCCCN1C(=O)c2cccc3c(NCCCCCCCCCCN4CCOCC4)ccc(c23)C1=O — absorption maximum (acetonitrile): 433 nm
CCN(CC)c1ccc2c(c1)O[B-]1(c3ccccc3OC)OC(=O)C(c3ccccc3)=N[N+]1=C2 (stereo not shown) — absorption maximum (toluene): 464 nm

Excerpt of the above:
CCCCN1C(=O)c2cccc3c(NCCCN4CCOCC4)ccc(c23)C1=O — absorption maximum (acetonitrile): 434 nm
C=C[C@]1(C)C[C@@H](OC(=O)CSc2ccc(NC(=O)c3ccco3)cc2)[C@]2(C)[C@H](C)CC[C@]3(CCC(=O)[C@H]32)[C@@H](C)[C@@H]1O — absorption half-life (chicken, Mycoplasmoides gallisepticum infected, plasma; intramuscular, 80 mg/kg): 5.77 min and 6 min
